Experimental data collected from several papers.
Numbered parts are unrelated; each lists some results of a single study.

Set 1
Target: Interferon regulatory factor 5, full length, phosphomimetic (IRF5, Homo sapiens, UniProt Q13568-2, residues 1-514, K96S/S451D/S453D/S456D/S462D)
Technique: protein-binding microarray
Molecule type: double-stranded DNA, one strand shown
Medium: in vitro
Tested at: 250 nM
Notes: 60-bp whole probe
With: salmon DNA 0.4 mg/ml
Reference: random background probes
Reading: higher = stronger binding
Endpoint: log fluorescence
All sequences stand within: GCCTAGCAC … GTCTTGATTCGCTTGACGCTGCTG
Sequence = TCATTTTCGTTTTTATTACTGTGCTAG; value = 7.71 z-score
Sequence = TTAGATATCGGGTTTCTATTAGTGCTA; value = 3.48 z-score
Sequence = GACGGACTGGGTTTCGGGACGTGCTAG; value = 2.4 z-score
Sequence = TTATGTATCCTTATCCTTTAGTGCTAG; value = 0.85 z-score
Sequence = TCATACATCTATGTAGAACTGTGCTAG; value = 0.443 z-score
Sequence = GCCGGTCTCCTTATCCTGACGTGCTAG; value = -0.278 z-score
Sequence = TCATTTCTTTCAAATGAAACTGTGCTA; value = 2.03 z-score

Set 2
Target: Prothrombin, mature alpha-thrombin (F2, Homo sapiens, UniProt P00734)
Technique: aptamer microarray, sandwich
Molecule type: DNA with 2'F-ANA
Medium: in vitro
Tested at: 200 nM
Notes: whole 15-mer aptamer, many near background
With: Cy3 exosite-II aptamer, 400 nM
Reading: higher = stronger binding
Endpoint: mean fluorescence intensity
Sequence: GGTTGGTGTGGTTGG
Modification = 2'F-ANA at 1 3 5 6 7 9 12 13 15; value = 114 a.u.
Modification = 2'F-ANA at 4 5 9 14 15; value = 46.5 a.u.
Modification = 2'F-ANA at 1 2 3 4 5 6 9 10 12 13; value = 49.6 a.u.
Modification = 2'F-ANA at 5 9 10 11 13; value = 50.1 a.u.
Modification = 2'F-ANA at 2 3 5 6 10 12 14; value = 47.6 a.u.
Modification = 2'F-ANA at 2 5 6 9 10 12 13 15; value = 57.5 a.u.
Modification = 2'F-ANA at 1 2 4 8 13; value = 109 a.u.
Modification = 2'F-ANA at 1 2 3 4 5 7 8 9 12 15; value = 127 a.u.

Set 3
Target: PABPC1L2, full length, GST fusion (mouse, UniProt A0ABA7IW68)
Technique: RNAcompete
Molecule type: RNA
Medium: in vitro
Tested at: 20 nM
Notes: 7-mer, probes averaged, single round
Reference: mean of 7-mers
Reading: higher = stronger binding
Endpoint: 7-mer Z-score
Target sequence (chain): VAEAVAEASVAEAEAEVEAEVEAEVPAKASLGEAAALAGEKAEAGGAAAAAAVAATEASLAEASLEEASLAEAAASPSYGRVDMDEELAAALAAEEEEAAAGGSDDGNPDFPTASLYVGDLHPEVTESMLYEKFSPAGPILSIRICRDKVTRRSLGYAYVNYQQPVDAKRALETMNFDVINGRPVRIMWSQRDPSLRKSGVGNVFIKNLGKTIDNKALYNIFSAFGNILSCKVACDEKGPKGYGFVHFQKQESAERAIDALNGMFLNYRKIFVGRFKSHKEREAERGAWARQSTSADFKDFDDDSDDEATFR
Sequence = GAUCGAG; value = -0.128
Sequence = ACAAACG; value = 0.599
Sequence = UUGCAAG; value = -0.142
Sequence = CUGUCUC; value = -0.32
Sequence = CUCAAAC; value = -0.00833
Sequence = UAUGCGC; value = -0.0953

Single results of other studies
Substance = PhoQ, residues 284 288 289 292 302 303 AAQSYM; target = PhoP, residues 12 14 15 18 19 SEGLL (Escherichia coli, UniProt P23836); assay = Sort-seq, measured: YFP reporter; system = E. coli; setting = PhoQ-PhoP variant library, with: 10 µM Mg2+; scale = reference: high Mg2+ state, higher = stronger signaling; endpoint = fold induction; value = 8.6
